Measured values collected from several papers.
Compare with care: the assays were run in different laboratories. ± marks the error that the study gave.
Read-out: enzyme activity
rep main protease: Replicase polyprotein 1ab, main protease (rep, Severe acute respiratory syndrome-related coronavirus, UniProt P0C6X7)
rep papain-like protease: Replicase polyprotein 1ab, papain-like protease (rep, Severe acute respiratory syndrome-related coronavirus, UniProt P0C6X7)

SMILES	target	action	IC50 [µM]
CCOC(=O)/C=C/C(Cc1ccccc1)NC(=O)[C@@H](CC(=O)C(NC(=O)c1cc(C)on1)C(C)C)Cc1ccc(F)cc1 (stereo partly drawn)	rep main protease	inhibitor	39
COc1cc(C[S+]([O-])c2nc3cccnc3s2)oc(=O)c1 (stereo not drawn)	rep main protease	inhibitor	< 10
CCC(C(=O)Nc1ccc(C)cc1)n1cccc2nc(SCc3ccc(F)cc3)nc1-2 (stereo not drawn)	rep papain-like protease		> 20
CCOC(=O)/C=C/C(C[C@@H]1CCNC1=O)NC(=O)[C@@H](CC(=O)C(NC(=O)c1cc(C)on1)C(C)C)Cc1ccccc1 (stereo partly drawn)	rep main protease	inhibitor	> 100
CCC(C(=O)Nc1ccc(F)cc1)n1c(SCc2ccc(F)cc2)nc2ncccc21 (stereo not drawn)	rep papain-like protease		> 20
C=CC(=O)NC(CC(=C)C)C(=O)N1CC(C(=O)NC(CCSC)C(=O)NC)C(c2cccc(C(F)(F)F)c2)C1 (stereo not drawn)	rep main protease	inhibitor	> 100
O=[N+]([O-])c1ccc(O)c(O)c1	rep papain-like protease	inhibitor	427
CCC(C(=O)Nc1ccccc1F)n1c(SCc2ccc(F)cc2)nc2ncccc21 (stereo not drawn)	rep papain-like protease		> 20
C=CC(=O)NC(CC(=C)C)C(=O)N1CC(C(=O)NC(C(=O)NC)C(C)CC)C(c2cccc(C(F)(F)F)c2)C1 (stereo not drawn)	rep main protease	inhibitor	61.7
CCOC(=O)/C=C/C(Cc1ccccc1)NC(=O)[C@@H](CC(=O)C(NC(=O)c1cc(C)on1)C(C)C)Cc1ccccc1 (stereo partly drawn)	rep main protease	inhibitor	13
CSCC[C@@H](C=O)NC(=O)[C@H](CC(C)C)NC(=O)[C@H](CC(C)C)NC(C)=O	rep main protease	inhibitor	2.04
Cc1ccc(C(=O)NCc2ccc(C)c(C(=O)N[C@H](C)c3cccc4ccccc34)c2)cc1Br	rep papain-like protease	inhibitor	0.32 ± 0.05
CCC(C(=O)Nc1ccccc1OC)n1cccc2nc(SCc3ccc(F)cc3)nc1-2 (stereo not drawn)	rep papain-like protease		10.2 ± 0.69
CN(C)c1ccc(/C=C/C(=O)N[C@@H](Cc2ccccc2)C(=O)N[C@H](C=O)C[C@@H]2CCNC2=O)cc1	rep main protease	inhibitor	0.5
C=CC(=O)NC(CC(=C)C)C(=O)N1CC(C(=O)NC(Cc2ccccc2)C(=O)NC)C(c2cccc(C(F)(F)F)c2)C1 (stereo not drawn)	rep main protease	inhibitor	3.5
CCOC(=O)/C=C/C(C[C@@H]1CCNC1=O)NC(=O)[C@@H](CC(=O)C(NC(=O)OCc1ccccc1)C(C)C)Cc1ccc(F)cc1 (stereo partly drawn)	rep main protease	inhibitor	> 100
CCC(C(=O)Nc1cccc(F)c1)n1c(SCc2ccc(F)cc2)nc2ncccc21 (stereo not drawn)	rep papain-like protease		> 20
O=C(/C=C/c1ccc2c(c1)OCO2)N[C@@H](Cc1ccccc1)C(=O)N[C@H](CO)C[C@@H]1CCNC1=O	rep main protease	inhibitor	> 25
CCOC(=O)C=CC(CC1CCNC1=O)NC(=O)C(Cc1ccccc1)NC(=O)C=Cc1ccc2c(c1)OCO2 (stereo not drawn)	rep main protease	inhibitor	10
N#CC1=C(N)OC2=C(c3sc(N)c(C#N)c3CC2)C1c1ccccc1Cl (stereo not drawn)	Replicase polyprotein 1ab, nsp14 (rep, Severe acute respiratory syndrome-related coronavirus, UniProt P0C6X7)	inhibitor	0.39 ± 0.25
CCOC(=O)/C=C/C(Cc1ccccc1)NC(=O)[C@H](Cc1ccccc1)NC(=O)C(NC(=O)OCc1ccccc1)C(C)C (stereo partly drawn)	rep main protease	inhibitor	11
CCC(C(=O)Nc1ccccc1)n1cccc2nc(SCc3ccc(F)cc3)nc1-2 (stereo not drawn)	rep papain-like protease		16.5 ± 2.26
CCOC(=O)/C=C/C(Cc1ccccc1)NC(=O)[C@H](Cc1ccccc1)NC(=O)C(NC(=O)c1cc(C)on1)C(C)C (stereo partly drawn)	rep main protease	inhibitor	30
CCC(C(=O)Nc1ccccc1Cl)n1cccc2nc(SCc3ccc(F)cc3)nc1-2 (stereo not drawn)	rep papain-like protease		14.5 ± 1.24

For quick reference, copied from above:
SMILES	target	action	IC50 [µM]
CCC(C(=O)Nc1ccccc1F)n1c(SCc2ccc(F)cc2)nc2ncccc21 (stereo not drawn)	rep papain-like protease		> 20
C=CC(=O)NC(CC(=C)C)C(=O)N1CC(C(=O)NC(C(=O)NC)C(C)CC)C(c2cccc(C(F)(F)F)c2)C1 (stereo not drawn)	rep main protease	inhibitor	61.7
